# Published values of several laboratories.
# Each numbered part is a random draw from the data of one study; scales do not carry over between parts. Changes are numbered by the printed parent chain.
# Chain of UniProt Q8WVN8 (whole entry, looked up): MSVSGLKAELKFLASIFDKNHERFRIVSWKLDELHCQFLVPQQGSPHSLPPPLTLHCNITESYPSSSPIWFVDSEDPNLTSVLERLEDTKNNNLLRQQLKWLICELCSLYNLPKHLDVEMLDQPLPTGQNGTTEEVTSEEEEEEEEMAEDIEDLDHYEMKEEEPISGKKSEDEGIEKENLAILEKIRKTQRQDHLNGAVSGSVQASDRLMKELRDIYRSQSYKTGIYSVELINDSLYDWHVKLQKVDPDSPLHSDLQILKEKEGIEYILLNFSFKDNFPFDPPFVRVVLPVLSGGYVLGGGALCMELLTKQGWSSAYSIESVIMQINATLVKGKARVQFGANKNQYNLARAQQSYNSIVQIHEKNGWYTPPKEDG
# Chain of UniProt P51965 (whole entry, looked up): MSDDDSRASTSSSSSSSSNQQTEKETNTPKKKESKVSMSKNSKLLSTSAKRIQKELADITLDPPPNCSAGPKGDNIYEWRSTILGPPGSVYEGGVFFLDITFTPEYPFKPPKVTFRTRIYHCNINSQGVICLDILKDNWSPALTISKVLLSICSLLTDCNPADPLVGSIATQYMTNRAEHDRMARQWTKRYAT
# Chain of UniProt Q96LR5 (whole entry, looked up): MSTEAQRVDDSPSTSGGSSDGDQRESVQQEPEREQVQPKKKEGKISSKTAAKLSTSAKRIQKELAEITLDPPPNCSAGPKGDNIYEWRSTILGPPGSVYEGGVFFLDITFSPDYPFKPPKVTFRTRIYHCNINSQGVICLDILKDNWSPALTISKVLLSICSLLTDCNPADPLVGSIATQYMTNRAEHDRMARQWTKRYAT
# Chain of UniProt P60604 (whole entry, looked up): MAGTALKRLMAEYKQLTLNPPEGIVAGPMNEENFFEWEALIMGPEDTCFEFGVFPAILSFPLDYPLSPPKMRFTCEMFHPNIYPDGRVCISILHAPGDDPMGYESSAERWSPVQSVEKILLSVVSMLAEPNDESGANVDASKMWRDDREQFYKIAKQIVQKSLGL
# Chain of UniProt Q5VVX9 (whole entry, looked up): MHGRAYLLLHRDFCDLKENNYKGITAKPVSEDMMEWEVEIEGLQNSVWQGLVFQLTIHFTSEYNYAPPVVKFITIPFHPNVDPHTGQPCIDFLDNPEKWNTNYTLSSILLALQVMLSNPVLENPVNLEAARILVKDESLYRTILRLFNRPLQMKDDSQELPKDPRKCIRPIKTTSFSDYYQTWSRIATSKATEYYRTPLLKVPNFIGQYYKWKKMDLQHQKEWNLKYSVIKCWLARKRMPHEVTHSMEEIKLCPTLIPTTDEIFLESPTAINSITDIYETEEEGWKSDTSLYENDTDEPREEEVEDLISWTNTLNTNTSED
# Chain of UniProt Q13404 (whole entry, looked up): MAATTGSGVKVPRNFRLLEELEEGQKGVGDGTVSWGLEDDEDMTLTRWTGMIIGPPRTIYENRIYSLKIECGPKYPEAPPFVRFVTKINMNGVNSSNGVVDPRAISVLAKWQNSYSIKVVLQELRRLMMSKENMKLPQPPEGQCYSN

# Series 1 — Sequence: B1 (UBE4A RING domain); method: yeast two-hybrid; sample: yeast; notes: mostly zero background; relative to: not given; reading: higher = stronger interaction
# B1: UBE4A RING domain (UniProt Q14139); chain LQQQEEETYADACDEFLDPIMSTLMCDPVVLPSSRVTVDRSTIARHLLSDQTDPFNRSPLTMDQIRPNTELKEKIQRWLAERKQQKEQLE
target,lacZ reporter activity
UBE2E1 UBC core domain (UniProt P51965),0
UBE2V1 UBC core domain (UniProt Q13404),0
UBE2E2 UBC core domain (UniProt Q96LR5),0
UBE2Q2 UBC core domain (UniProt Q8WVN8),0
UBE2U UBC core domain (UniProt Q5VVX9),0
UBE2G2 UBC core domain (UniProt P60604),6550

# Series 2 — method: two-hybrid; relative to: out of 4 tests; reading: higher = firmer interaction
# Partner: ARF13 (Arabidopsis thaliana, UniProt Q9FX25)
# Chain of UniProt Q9FX25 (whole entry, looked up): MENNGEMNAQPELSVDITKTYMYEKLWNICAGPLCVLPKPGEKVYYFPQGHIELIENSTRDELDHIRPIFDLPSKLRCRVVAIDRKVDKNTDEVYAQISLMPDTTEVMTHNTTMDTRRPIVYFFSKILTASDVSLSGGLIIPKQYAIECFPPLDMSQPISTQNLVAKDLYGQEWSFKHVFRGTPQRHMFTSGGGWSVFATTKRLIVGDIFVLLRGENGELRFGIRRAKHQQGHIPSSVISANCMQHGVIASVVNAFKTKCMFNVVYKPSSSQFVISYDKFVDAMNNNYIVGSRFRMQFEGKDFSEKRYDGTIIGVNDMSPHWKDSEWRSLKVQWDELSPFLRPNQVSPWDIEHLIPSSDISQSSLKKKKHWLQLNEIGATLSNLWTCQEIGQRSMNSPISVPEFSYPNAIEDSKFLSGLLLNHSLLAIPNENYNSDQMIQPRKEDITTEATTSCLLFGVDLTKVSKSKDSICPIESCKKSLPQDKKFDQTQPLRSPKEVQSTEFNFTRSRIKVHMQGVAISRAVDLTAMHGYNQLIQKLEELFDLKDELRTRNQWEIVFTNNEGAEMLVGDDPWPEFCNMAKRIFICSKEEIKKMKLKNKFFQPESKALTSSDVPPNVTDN
# B2: ARF12 500-593 (Arabidopsis thaliana, UniProt Q9XID4); chain TEIQNKQFSSSRTCTKVQMQGVTIGRAVDLSVLNGYDQLILELEKLFDIKGQLQTRNQWEIAFTDSDEDKMLVGDDPWPEFCNMVKKIFIQKRR
# B3: ARF6 790-935 (Arabidopsis thaliana, UniProt Q9ZTX8); chain SENPQSNTFVKVYKSGSFGRSLDISKFSSYHELRSELARMFGLEGQLEDPVRSGWQLVFVDRENDVLLLGDDPWPEFVSSVWCIKILSPQEVQQMGKRGLELLNSAPSSNNVDKLPSNGNCDDFGNRSDPRNLGNGIASVGGSFNY
# B4: IAA19 (Arabidopsis thaliana, UniProt O24409); chain MEKEGLGLEITELRLGLPGRDVAEKMMKKRAFTEMNMTSSGSNSDQCESGVVSSGGDAEKVNDSPAAKSQVVGWPPVCSYRKKNSCKEASTTKVGLGYVKVSMDGVPYLRKMDLGSSQGYDDLAFALDKLFGFRGIGVALKDGDNCEYVTIYEDKDGDWMLAGDVPWGMFLESCKRLRIMKRSDATGFGLQPRGVDE
# B5: ARF11 500-622 (Arabidopsis thaliana, UniProt Q9ZPY6); chain SPKEQKQQTSTRSRIKVQMQGTAVGRAVDLTLLRSYDELIKELEKMFEIEGELSPKDKWAIVFTDDEGDRMLVGDDPWNEFCKMAKKLFIYPSDEVKKMRSKSLLGDKGTIVNLESDQRTVHV
# B6: IAA29 (Arabidopsis thaliana, UniProt Q93WC4); chain MELDLGLSLSPHKSSKLGFNFDLNKHCAIEGAASCLGTEKLRFEATFGLGNVEENCYMPKQRLFALNGQPNEEDEDPLESESSIVYDDEEENSEVVGWPPVKTCMIKYGSYHHRHIRNHHHCPYHHRGRRITAMNNNISNPTTATVGSSSSSSISSRSSMYVKVKMDGVAIARKVDIKLFNSYESLTNSLITMFTEYEDCDREDTNYTFTFQGKEGDWLLRGDVTWKIFAESVHRISIIRDRPCAYTRCLF
Sequence,positive tests
B2 (ARF12 500-593),0
B3 (ARF6 790-935),0
B4 (IAA19),0
B5 (ARF11 500-622),0
B6 (IAA29),0

# Series 3 — method: protein-binding microarray; molecule type: hairpin DNA; sample: in vitro; concentration: not given; relative to: not given; reading: higher = stronger binding; constant ends, left off below: GAGGCCG … CGGCCTCACACTC
# Target: Krueppel-like factor 3, full length (KLF3, Homo sapiens, UniProt P57682, residues 1-345)
# Chain of UniProt P57682 (whole entry, looked up): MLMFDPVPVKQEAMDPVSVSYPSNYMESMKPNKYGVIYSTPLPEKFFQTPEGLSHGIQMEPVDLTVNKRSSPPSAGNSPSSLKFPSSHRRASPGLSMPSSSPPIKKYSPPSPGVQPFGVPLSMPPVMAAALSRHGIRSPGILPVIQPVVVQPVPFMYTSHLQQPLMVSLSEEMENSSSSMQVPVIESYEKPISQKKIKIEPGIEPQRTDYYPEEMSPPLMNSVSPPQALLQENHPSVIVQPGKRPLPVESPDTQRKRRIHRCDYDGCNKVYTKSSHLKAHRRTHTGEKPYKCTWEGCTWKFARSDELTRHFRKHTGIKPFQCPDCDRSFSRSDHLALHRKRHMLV
# Notes: whole hairpin DNA, median over replicate spots
Strand,median fluorescence
ACCGCGCGCAGCCTCCTGGCTGCGCGCGGT (5mC at 14 30),10700 a.u.
CGCGCGCCCAGCCTCCTGGCTGGGCGCGCG (5mC at 8 36),9930 a.u.
ACCACGCGCAGCCTCCTGGCTGCGCGTGGT (5mC at 14 30),22500 a.u.
ACCGCGCCCGGCCTCCTGGCCGGGCGCGGT,8610 a.u.
CCCACGCCCAGCCTCCTGGCTGGGCGTGGG,9410 a.u.
ACCGCCGCCAGCCTCCTGGCTGGCGGCGGT (5mC at 13),8340 a.u.
CGCGCGCCCAGCCTCCTGGCTGGGCGCGCG (5mC at 36),12000 a.u.
ACCGCGCCCGGCCTCCTGGCCGGGCGCGGT (5mC at 16 28),9060 a.u.

# Further values, each from its own experiment — parent: viral docking peptide; KGVKRKLFAEDSS
Change,target,assay,test system,conditions,scale,quantity,value
K6S,"CCNE1, cyclin fold, Cln2 fusion (human)","yeast growth competition, sequencing",yeast,strong parent motif,"relative to: not given, higher = stronger binding",normalised enrichment score,4.09

# Repeated from above (series 2):
Sequence,positive tests
B2 (ARF12 500-593),0
